Measured values from different studies.
Each numbered part is a random draw from the data of one study; scales do not carry over between parts. Positions count from the first letter of the parent shown.

Sample 1
Target: Centromere-binding protein 1, full length, His-tagged (CBF1, Saccharomyces cerevisiae, UniProt P17106, residues 1-351)
Chain of UniProt P17106 (whole entry, looked up): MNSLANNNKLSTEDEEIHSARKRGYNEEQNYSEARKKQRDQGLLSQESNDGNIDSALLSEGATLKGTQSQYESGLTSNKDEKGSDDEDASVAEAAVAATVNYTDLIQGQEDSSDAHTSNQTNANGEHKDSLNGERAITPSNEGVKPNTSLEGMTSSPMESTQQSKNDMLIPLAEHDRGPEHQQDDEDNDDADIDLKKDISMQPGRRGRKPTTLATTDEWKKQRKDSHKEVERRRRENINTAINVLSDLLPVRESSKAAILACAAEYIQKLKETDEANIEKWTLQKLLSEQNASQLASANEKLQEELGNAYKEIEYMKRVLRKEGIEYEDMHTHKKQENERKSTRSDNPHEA
Method: competition protein-binding microarray
Form: double-stranded DNA, one strand shown
Sample: in vitro
Concentration: 2 µM
Setting: whole 60-bp probe, lowest competitor level
Together with: Pho4 competitor, 0.05 µM
Reading: higher = stronger binding
Quantity: fluorescence intensity
Oligonucleotide = TCCTTCTACAATCCTTTCGTGACGAATATTGAATCAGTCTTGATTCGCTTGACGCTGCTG; value = 102 a.u.
Oligonucleotide = CGGGGTTAAGTTTGTTAAGTGGGTGGCTTGCAGCAGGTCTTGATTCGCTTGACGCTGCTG; value = 73.5 a.u.
Oligonucleotide = ACAACAAACAAAGGCAACGTGCAAAAAACAACCATCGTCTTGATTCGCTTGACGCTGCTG; value = 155 a.u.
Oligonucleotide = AAATTACTAAGTTTTCACGTGTTCTACCCCGTATGAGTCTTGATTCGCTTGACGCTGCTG; value = 1520 a.u.
Oligonucleotide = ATGGCAACGAGGTCGCACACGCCAGACACCCAGACCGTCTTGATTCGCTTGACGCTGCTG; value = 80 a.u.
Oligonucleotide = CATACCCAACCTTGTACAGTGGGTGAAGATATTTGTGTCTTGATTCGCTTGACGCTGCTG; value = 64.9 a.u.
Oligonucleotide = CTTTCCCGATCTTGTTGCGTGGGTGTAGCACATTTGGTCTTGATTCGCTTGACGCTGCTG; value = 73.5 a.u.
Oligonucleotide = ATTGAGATAAAAATAAACGTGGTTACTCCCGAGGCAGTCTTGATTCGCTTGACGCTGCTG; value = 130 a.u.
Oligonucleotide = CTTCTGTAAATTTGCCTGGTGGGTGGACGCGCCCCGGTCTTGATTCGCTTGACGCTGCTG; value = 69.4 a.u.
Oligonucleotide = AAGCATCCTTGTTTGCACGGGATGCCCTGCACAGTAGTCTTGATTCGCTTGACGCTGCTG; value = 134 a.u.
Oligonucleotide = GGACCAGCCCGGACCCATGTGCTTCCAAGTGGCCAGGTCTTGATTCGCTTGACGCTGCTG; value = 73.8 a.u.
Oligonucleotide = CTTCATTTTGGGTGGCACATGGCAAAGCAATGTCGAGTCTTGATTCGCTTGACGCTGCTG; value = 166 a.u.
Oligonucleotide = GACCACAAAAGGATGCACGATCAGAAGCACTGTACCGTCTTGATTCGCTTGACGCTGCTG; value = 76.2 a.u.

Sample 2
Target: Sal-like protein 4, full length isoform B (SALL4, Homo sapiens, UniProt Q9UJQ4-2, residues 1-616)
Method: universal PBM
Form: double-stranded DNA, one strand shown
Sample: in vitro
Concentration: not given
Setting: 8-mer, flanks averaged, mean of replicates
Reading: higher = stronger binding
Quantity: E-score
Oligonucleotide = AACAGCAT; value = 0.106
Oligonucleotide = CTGCCCCC; value = -0.22
Oligonucleotide = CTGAGTCC; value = -0.275
Oligonucleotide = GATAGTGA; value = 0.131
Oligonucleotide = CTCACAAG; value = 0.0115
Oligonucleotide = CTATGGAG; value = 0.0841
Oligonucleotide = CGGGGACA; value = -0.166
Oligonucleotide = CGAGGGAA; value = -0.0773
Oligonucleotide = ATAAACGG; value = 0.3
Oligonucleotide = CAACGCGA; value = -0.32

Sample 3
Target: CCNE1, cyclin fold, Cln2 fusion (human)
Method: yeast growth competition, sequencing
Sample: yeast
Setting: strong parent motif
Baseline: not given
Reading: higher = stronger binding
Quantity: normalised enrichment score
Starting sequence: E2F1 docking peptide (human); PPVKRRLDFETDH; partner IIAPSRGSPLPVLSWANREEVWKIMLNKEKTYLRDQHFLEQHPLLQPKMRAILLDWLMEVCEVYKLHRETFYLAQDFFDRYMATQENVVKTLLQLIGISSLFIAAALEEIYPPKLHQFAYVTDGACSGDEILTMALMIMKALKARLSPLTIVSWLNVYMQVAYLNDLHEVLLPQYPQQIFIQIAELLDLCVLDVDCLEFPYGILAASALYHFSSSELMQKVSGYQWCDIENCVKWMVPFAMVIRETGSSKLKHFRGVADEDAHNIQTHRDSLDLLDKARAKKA
Substitution = R6W; value = 4.49
Substitution = R5D; value = -0.00345
Substitution = D12S; value = 6.43
Substitution = D8G; value = 4.57
Substitution = T11H; value = 6.15
Substitution = E10V; value = 6.14
Substitution = D8R; value = 5.77
Substitution = T11G; value = 6.32
Substitution = P2T; value = 6.5
Substitution = P2Y; value = 5.97
Substitution = K4R; value = 6.15
Substitution = R6V; value = 6.39
Substitution = D12I; value = 6.46
Substitution = D8T; value = 6.46

Other studies, line by line
Molecule = PhoQ, residues 284 288 289 292 302 303 ALSMDL; target = PhoP, residues 12 14 15 18 19 NQFFI (Escherichia coli, UniProt P23836); assay = Sort-seq, refers to: YFP reporter; test system = E. coli; setting = PhoQ-PhoP variant library, together with: 10 µM Mg2+; scale = baseline: high Mg2+ state, higher = stronger signaling; quantity = fold induction; value = 14.3

Some of these lines once more (sample 1):
Oligonucleotide = CTTCTGTAAATTTGCCTGGTGGGTGGACGCGCCCCGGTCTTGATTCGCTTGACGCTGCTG; value = 69.4 a.u.
Oligonucleotide = AAGCATCCTTGTTTGCACGGGATGCCCTGCACAGTAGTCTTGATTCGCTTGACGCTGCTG; value = 134 a.u.
Oligonucleotide = GGACCAGCCCGGACCCATGTGCTTCCAAGTGGCCAGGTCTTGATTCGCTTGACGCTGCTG; value = 73.8 a.u.
